Published values pooled from the literature.
Protocols differ between the studies behind these lines. pEC50: −log10 of the molar value. Converted amounts (≈) assume the structure as drawn.

With `CC(=O)[O-].CN(C)C=O.F[P-](F)(F)(F)(F)F.[Co+2].c1ccc(CN2CCN3CCCN(CC2)CCN(Cc2ccccc2)CC3)cc1` the IC90 was over 10 µM (Leishmania donovani; parasite growth, resazurin; 72 h, amastigote).
`COc1ccc(-c2oc3ccc(-c4cc(OC)c(OC)c(OC)c4)cc3c2C#CC2(O)CCCCC2)cc1` gave a remaining activity of 77% (hepatitis C virus; viral entry, HCV pseudoparticle entry; genotype 1b; 10 µM; relative to: DMSO).
For `Nc1ccn(C[C@@H](CO)OCP(=O)(O)OCCCS(=O)(=O)CCCCCCCCCCCCCC2CCC2)c(=O)n1`, the selectivity index was 356 (human gammaherpesvirus 4; qPCR; Akata; relative to: CC50 over EC50).
`CC(=O)[O-].F[P-](F)(F)(F)(F)F.[Co+2].c1ccc(CN2CCCNCCN(Cc3ccccc3)CCCNCC2)cc1` has an IC90 of over 15 µM (Leishmania donovani; parasite growth; THP-1 macrophages; intracellular amastigotes).
Under antibacterial activity, `CC(CCC(=O)[O-])C1CCC2C3C(O)CC4CC(O)CCC4(C)C3CCC12C.C[N+](C)(C)CC(O)CC(=O)O` (stereo not shown) is recorded as “inactive” (Shigella flexneri; ATCC 9199; 1 mg per disc, 18 to 24 h, 37 °C).
`O=S(=O)(CCC(F)(F)F)N[C@H]1CC[C@H](Nc2ncc3c(-c4ccccn4)n[nH]c3n2)CC1`: “EC50 fold change” 1 (Leishmania donovani; promastigotes, LdBOB start clone; relative to: wild type).
For `[O-][N+]1=C(c2ccc(Cl)cc2)C2=NCCCN2c2ccccc21`, the MIC was 2 µg/mL (≈ 6.41 µM) (Finegoldia magna).
The lethal concentration of `CC[C@H](C)[C@H](NC(=O)[C@H](CCCCN)NC(=O)[C@H](CCCCN)NC(=O)[C@H](CC(C)C)NC(=O)[C@H](CCCCN)NC(=O)[C@H](CCC(=O)O)NC(=O)[C@H](CCCCN)NC(=O)[C@@H](NC(=O)[C@H](CCCCN)NC(=O)[C@H](CC(N)=O)NC(=O)[C@H](CCCNC(=N)N)NC(=O)[C@H](Cc1ccccc1)NC(=O)[C@H](CCCCN)NC(=O)[C@H](CCCNC(=N)N)NC(=O)[C@H](CC(C)C)NC(=O)[C@H](CCCNC(=N)N)NC(=O)[C@H](CCCCN)NC(=O)[C@H](CCCNC(=N)N)NC(=O)[C@H](CC(C)C)NC(=O)CN)[C@@H](C)CC)C(=O)NCC(=O)N[C@@H](CCC(N)=O)C(=O)N[C@@H](CCCCN)C(=O)N[C@H](C(=O)N[C@@H](CCC(N)=O)C(=O)NCC(=O)N[C@@H](Cc1ccccc1)C(=O)N[C@H](C(=O)N1CCC[C@H]1C(=O)N[C@@H](CCCCN)C(=O)N[C@@H](CC(C)C)C(=O)N[C@@H](C)C(=O)N1CCC[C@H]1C(=O)N[C@@H](CCCNC(=N)N)C(=O)N[C@H](C(=O)N[C@@H](CC(=O)O)C(=O)N[C@@H](Cc1ccc(O)cc1)C(=O)O)[C@@H](C)O)C(C)C)[C@@H](C)CC` is reported as 3.93 µM (Stenotrophomonas maltophilia; inhibition zone; CGMCC 1.179; LB agar, overnight).
`CCCN1CCNC1=[S+][Ag-3]([O][N+](=O)[O-])([P+](c1ccccc1)(c1ccccc1)c1ccccc1)[P+](c1ccccc1)(c1ccccc1)c1ccccc1` — result for “inhibition zone diameter”: 13 mm (Shigella flexneri; MTCC 1457, DMSO; 0.1 mL of 50 mg/mL in 8 mm well, 18 to 24 h).
The colistin MIC of `Oc1ccc(C(F)(F)F)cc1-c1nc2c(Cl)cc(Cl)cc2[nH]1` is reported as 0.25 µg/mL (Acinetobacter baumannii; colistin potentiator; AB 1F9, colistin-resistant; 5 µM).
`O=C1/C(=N\NC(=S)NN=Cc2cccs2)c2ccccc2N1Cc1ccccc1` gave a pEC50 of under 4.70 (varicella-zoster virus; plaque formation; HEL, TK-).
For `CC(=O)Oc1ccc(Cn2ccc(=O)[nH]c2=O)cc1C1OC(c2ccc(Cl)cc2)=NN1C(C)=O` (stereo not shown), the pEC50 was under 4.70 (varicella-zoster virus; plaque formation, plaque reduction; HEL fibroblasts, TK+ strain OKA).
`CC(=O)[O-].F[P-](F)(F)(F)(F)F.[Ni+2].c1ccc(CN2CCN3CCN(CC2)CCN(Cc2ccccc2)CC3)cc1` gave an IC90 of over 20 µM (Leishmania donovani; parasite growth; THP-1 macrophages; intracellular amastigotes).

Excerpt of the above:
For `Nc1ccn(C[C@@H](CO)OCP(=O)(O)OCCCS(=O)(=O)CCCCCCCCCCCCCC2CCC2)c(=O)n1`, the selectivity index was 356 (human gammaherpesvirus 4; qPCR; Akata; relative to: CC50 over EC50).
`CC(=O)[O-].F[P-](F)(F)(F)(F)F.[Co+2].c1ccc(CN2CCCNCCN(Cc3ccccc3)CCCNCC2)cc1` has an IC90 of over 15 µM (Leishmania donovani; parasite growth; THP-1 macrophages; intracellular amastigotes).
